Experimental data of several laboratories.
Each numbered part is a random draw from the data of one study; scales do not carry over between parts. Substitutions count along the parent as printed.

Set 1
Target: Fragile X messenger ribonucleoprotein 1, C-terminal low-complexity region (Fmr1, Mus musculus, UniProt P35922)
Method: RNA Bind-n-Seq
Form: RNA
Medium: in vitro
Concentration: 200 nM
Setting: whole 134-nt RNA, ends assumed
With: 150 mM LiCl
Baseline: input library
Direction: higher = stronger binding
Library: 7-deaza-guanosine replaces G
Shared flanks, not repeated: GGGAGUUCUACAGUCCGACGAUC … UGGAAUUCUCGGGUGUCAAGG
| Oligonucleotide | log2 enrichment |
| --- | --- |
| AAGUCCUGUGCUACACAUCGUAUGUACCGAAUCGGUUUUGGGUUUUGGGGUUUUGGGAAAGUAUUAUGUUACGCCGUUCGGAUCUGCACU | -1.06 |
| GCAGGAAGUAAAAACAAAUGGAAAUGCUUCGGAUAGUGGCAGGGGUGGGGGUUGCUAAGGAAAGGGUAGGAUGGGAGUGGGUAAAGAGUU | 1.45 |
| CAAGUCCUGUGCUACACAUCGUAUGUACCGAAUCGGGGAGGGGAAAGGGGAGGGGAAAGUAUUAUGUUACGCCGUUCGGAUCUGCACUUC | 0.526 |
| ACCAUGCAGGUGGGCAUCUUUGGGACGUGGGGCAAGGGGGGGAUAGGGAGGGGGGUAACACUUUGGGAACAGGUGGUCCCAGGUCGUUUC | 1.31 |
| AGUCCUGUGCUACACAUCGUAUGUACCGAAUCGGGCCCCGGCCCCGGGGCCCCGGGGAAAGUAUUAUGUUACGCCGUUCGGAUCUGCACU | -3.62 |
| UCAAGUCCUGUGCUACACAUCGUAUGUACCGAAUCGGAAAAAAAGGUGGUUUGGAAAGUAUUAUGUUACGCCGUUCGGAUCUGCACUUCC | -1.73 |
| UAACUUUAGAGGAGGACCUGAUGGAUAUGGCAGUGGACGUGGAUUUGGGGAUGGCUAUAAUGGGUAUGGAGGAGGACCUGGAGGUGGCAA | -0.387 |
| GCAGGAAGUAAAAACAAAUGGAAAUGCUUCGGAUAGUGGCAGGGGUGGGGGUUGCUAAGGAAAGGGUGGGAUGGGAAAAGGUAAAGAGUU | 1.43 |

Set 2
Target: Interferon regulatory factor 7, full length, phosphomimetic (IRF7, Homo sapiens, UniProt Q92985, residues 1-503, S101K/S471D/S472D/S475D/S476D/S477D/S483D/S484D/S487D)
Method: protein-binding microarray
Form: double-stranded DNA, one strand shown
Medium: in vitro
Concentration: 250 nM
Setting: 60-bp whole probe
With: salmon DNA 0.4 mg/ml
Baseline: random background probes
Direction: higher = stronger binding
Shared flanks, not repeated: GCCTAGCAC … GTCTTGATTCGCTTGACGCTGCTG
Target sequence (chain): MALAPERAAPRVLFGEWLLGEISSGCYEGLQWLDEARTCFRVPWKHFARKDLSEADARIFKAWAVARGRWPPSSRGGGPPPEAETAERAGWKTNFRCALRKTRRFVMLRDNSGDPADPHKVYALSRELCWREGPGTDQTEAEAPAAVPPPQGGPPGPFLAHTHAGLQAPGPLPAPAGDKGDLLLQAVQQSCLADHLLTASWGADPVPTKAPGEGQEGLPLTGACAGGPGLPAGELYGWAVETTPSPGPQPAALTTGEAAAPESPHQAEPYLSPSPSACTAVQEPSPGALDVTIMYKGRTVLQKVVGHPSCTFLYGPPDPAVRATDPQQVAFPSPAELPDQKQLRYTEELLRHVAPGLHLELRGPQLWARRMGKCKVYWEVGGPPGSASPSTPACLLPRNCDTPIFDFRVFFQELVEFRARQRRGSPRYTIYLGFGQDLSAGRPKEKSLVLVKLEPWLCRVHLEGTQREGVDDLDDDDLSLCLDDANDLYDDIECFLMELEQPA
| Oligonucleotide | log fluorescence |
| --- | --- |
| TTAGGTCTCCTACTGCTTGAGTGCTAG | -0.262 z-score |
| TTAGGTCTCGGTTTAGGTTAGTGCTAG | 7.76 z-score |
| TGGTCTCTAGTTAGAGAACTGTGCTAG | 2.97 z-score |
| TTAGAACAGGGGTTTCGATTAGTGCTA | 6.41 z-score |
| GACGGTATCCTTCTCCTGCCGTGCTAG | -0.0607 z-score |
| TTAGGCCTCCTTATCCTTTAGTGCTAG | 0.23 z-score |
| TCATCTTTACTTCACTCACTGTGCTAG | 0.735 z-score |
| TTAGGTCTCCTATTGCTTTAGTGCTAG | 0.39 z-score |
| GACGAACTGCGGTATCGAGACGTGCTA | -0.294 z-score |
| GACGGTTTCGAGACTGGGGACGTGCTA | 4.72 z-score |
| TTAGAACTGGTGTATCGATTAGTGCTA | -0.362 z-score |
| GACGGTCTCCATTTCCTGACGTGCTAG | 1.6 z-score |
| TCAGATTGGTTGAACATACTGTGCTAG | -0.135 z-score |
| ATATATATTATATATTTATGTGTGCTA | 0.72 z-score |

Set 3
Target: RNA binding protein fox-1 homolog 2, RRM domain, GST-SBP tag (RBFOX2, Homo sapiens, UniProt O43251-10, residues 100-194)
Method: RNA Bind-n-Seq
Form: RNA
Medium: in vitro
Concentration: 365 nM
Setting: natural RNA segment, single round, ends assumed
Baseline: no-protein control
Direction: higher = stronger binding
Shared flanks, not repeated: GGGAGUUCUACAGUCCGACGAUC … UGGAAUUCUCGGGUGCCAA
Residues (chain): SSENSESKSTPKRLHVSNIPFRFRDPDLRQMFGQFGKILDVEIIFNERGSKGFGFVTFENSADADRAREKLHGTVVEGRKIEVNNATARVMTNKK
| Oligonucleotide | RBNS enrichment (R) |
| --- | --- |
| GCCUGAAUGUGAAACAUUCCUCCUUUUUUCUUCCAUAAAUAAUUUGUUUGCUUCCCAAAGAUGUAUGUUUUGGAAAAAAAUUGCCUGUAGUCUGGUUGUGAAGAACACUG | 3.85 |
| CCAAUAAUAAAAAACAAGAAACCAAGUGGGCUGGUAUUCUCUCUAUGCAAAAUGUCUGUUUUAGUUGGAAUGACUGAAAGAAGAACAGCUGUUCCUGUGUUCUUCGUAUA | 1.13 |
| AAGUAAAGUAUGCUGGGCUGGUGGUGGUCAGCCUUCCCCUUGCCAAGAAGAGAGCAAUUGAAUCCUGUCCCCAGCUCCCUCCAGCCUGAAGAGUGACCAGUGCUGGCCCG | 1.35 |
| GGUCCUGAUGUUGUAUGUACUAUAUAAAGAGACCCCUCCCCUUAUAUUGUGUUUUCCAUCCCUCACCCUCAACAGGAUUAAAAUAAAACAUGCUGGGUUUUUUUGUUUUG | 0.9 |
| CUUUCUCGGUCUUUGUCUCUCUUUCUUCCUUUCCUUUCUAUUUCCCCCAGGGUCUCCUGUUAACCAGGCUGACUUCGAACUCACAACCUUUAAUUUCUAACCCUACCACA | 0.963 |
| GGGCCAGGGGUCUCCAGCAUGACUUGUUUGCUCUCCCUCCCCCACCCUCACUCCUACCUCCCAUAGAAGUGUAUUCUUAUCCCUAGUUCCUGUCUGAGUAAGCCAGGGUG | 6 |
| CUAGGGACAUGAGUCGUGCCCAGGGUAUAAACCCAAACCUGGUCAUUUCUUGAACAGUCUGUGAAUAUGCCUGUGUGGACGCUGUAUCCUGCUGCUGUCCCUCUCCUGGU | 0.315 |
| UGGGUCUUAGGCCUCCUUCCCUCCUCAGUGUCUUUCAAAUGACUUUCAUCAAAUGACUUUCAAAAUAAACCUUAUUUUGGCAAAGGCAUUUGUUGAGACUUAUUUUUUGG | 0.363 |

Set 4
Target: CCNF, cyclin fold, Cln2 fusion (human)
Method: yeast growth competition, sequencing
Medium: yeast
Setting: strong parent motif
Baseline: not given
Direction: higher = stronger binding
Starting sequence: PPP1R3F docking peptide (human); VAPRRVLFADEAL; partner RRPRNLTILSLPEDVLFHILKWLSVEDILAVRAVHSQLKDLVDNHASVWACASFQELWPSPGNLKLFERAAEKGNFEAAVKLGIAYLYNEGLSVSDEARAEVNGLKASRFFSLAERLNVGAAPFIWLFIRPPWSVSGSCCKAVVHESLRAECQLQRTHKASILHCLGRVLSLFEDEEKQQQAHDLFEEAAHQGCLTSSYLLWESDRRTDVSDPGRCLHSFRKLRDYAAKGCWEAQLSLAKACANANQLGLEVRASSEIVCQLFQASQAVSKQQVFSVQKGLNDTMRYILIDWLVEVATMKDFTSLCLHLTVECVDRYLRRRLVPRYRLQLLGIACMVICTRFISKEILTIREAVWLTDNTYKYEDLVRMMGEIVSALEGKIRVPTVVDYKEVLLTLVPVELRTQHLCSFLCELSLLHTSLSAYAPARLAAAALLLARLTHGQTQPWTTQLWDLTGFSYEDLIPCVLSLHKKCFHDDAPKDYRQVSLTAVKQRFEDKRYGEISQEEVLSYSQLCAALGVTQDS
| Change | normalised enrichment score |
| --- | --- |
| P3A | 8.48 |
| R5A L7A | -0.461 |
| L13A | 7.63 |
| V1A | 7.25 |
| R4A | 4.05 |
| L7A | 1.11 |
| R5K | 4.57 |
| F8L | 0.792 |

Excerpt of the above (set 1):
| Oligonucleotide | log2 enrichment |
| --- | --- |
| AGUCCUGUGCUACACAUCGUAUGUACCGAAUCGGGCCCCGGCCCCGGGGCCCCGGGGAAAGUAUUAUGUUACGCCGUUCGGAUCUGCACU | -3.62 |
| UCAAGUCCUGUGCUACACAUCGUAUGUACCGAAUCGGAAAAAAAGGUGGUUUGGAAAGUAUUAUGUUACGCCGUUCGGAUCUGCACUUCC | -1.73 |
| UAACUUUAGAGGAGGACCUGAUGGAUAUGGCAGUGGACGUGGAUUUGGGGAUGGCUAUAAUGGGUAUGGAGGAGGACCUGGAGGUGGCAA | -0.387 |
